Experimental data gathered from unrelated publications.
Several values in a cell are separate wells, animals, samples, runs or records.
B1: susA 23-617 (Bacteroides thetaiotaomicron, UniProt Q8A1G0); sequence looked up; chain TSTIKKVAPTFWWAGMKNPELQILLYGDRISSADVSLSADNITLQEVVKQENPNYLVLYLDLSKAAPQNFDIILKQGKKQTKIPYELKQRRPNASAVEGFDSSDVLYLIMPDRFANGNPSNDIIPGMLEGNVDRNEPFARHGGDLKGIENHLDYIADLGVTSIWLNPIQENDMKEGSYHGYAITDYYQVDRRFGSNEEFRKLTQEANAKGLKVVMDMIFNHCGSDNYLFKDMPSKDWFNFEGNYVQTSFKTATQMDPYASDYEKKIAIDGWFTLTMPDFNQRNRHVATYLIQSSIWWIEYAGINGIRQDTHPYADFDMMARWCKAVNEEYPKFNIVGETWLGNNVLISYWQKDSRLAYPKNSNLPTVMDFPLMEEMNKAFDEETTEWNGGLFRLYEYLSQDIVYSHPMSLLTFLDNHDTSRFYRSEADTKNLDRYKQALTFLLTTRGIPQIYYGTEILMAADKANGDGLLRCDFPGGWPNDTKNCFDAANRTPQQNEAFSFMQKLLQWRKGNEVIAKGQLKHFAPNKGVYVYERKYGDKSVVVFLNGNDREQTIDLVPYQEILPASSAFDLLTEKKVELRNELTLPSREIYLLSF
Sequence of UniProt Q02880 (whole entry, looked up): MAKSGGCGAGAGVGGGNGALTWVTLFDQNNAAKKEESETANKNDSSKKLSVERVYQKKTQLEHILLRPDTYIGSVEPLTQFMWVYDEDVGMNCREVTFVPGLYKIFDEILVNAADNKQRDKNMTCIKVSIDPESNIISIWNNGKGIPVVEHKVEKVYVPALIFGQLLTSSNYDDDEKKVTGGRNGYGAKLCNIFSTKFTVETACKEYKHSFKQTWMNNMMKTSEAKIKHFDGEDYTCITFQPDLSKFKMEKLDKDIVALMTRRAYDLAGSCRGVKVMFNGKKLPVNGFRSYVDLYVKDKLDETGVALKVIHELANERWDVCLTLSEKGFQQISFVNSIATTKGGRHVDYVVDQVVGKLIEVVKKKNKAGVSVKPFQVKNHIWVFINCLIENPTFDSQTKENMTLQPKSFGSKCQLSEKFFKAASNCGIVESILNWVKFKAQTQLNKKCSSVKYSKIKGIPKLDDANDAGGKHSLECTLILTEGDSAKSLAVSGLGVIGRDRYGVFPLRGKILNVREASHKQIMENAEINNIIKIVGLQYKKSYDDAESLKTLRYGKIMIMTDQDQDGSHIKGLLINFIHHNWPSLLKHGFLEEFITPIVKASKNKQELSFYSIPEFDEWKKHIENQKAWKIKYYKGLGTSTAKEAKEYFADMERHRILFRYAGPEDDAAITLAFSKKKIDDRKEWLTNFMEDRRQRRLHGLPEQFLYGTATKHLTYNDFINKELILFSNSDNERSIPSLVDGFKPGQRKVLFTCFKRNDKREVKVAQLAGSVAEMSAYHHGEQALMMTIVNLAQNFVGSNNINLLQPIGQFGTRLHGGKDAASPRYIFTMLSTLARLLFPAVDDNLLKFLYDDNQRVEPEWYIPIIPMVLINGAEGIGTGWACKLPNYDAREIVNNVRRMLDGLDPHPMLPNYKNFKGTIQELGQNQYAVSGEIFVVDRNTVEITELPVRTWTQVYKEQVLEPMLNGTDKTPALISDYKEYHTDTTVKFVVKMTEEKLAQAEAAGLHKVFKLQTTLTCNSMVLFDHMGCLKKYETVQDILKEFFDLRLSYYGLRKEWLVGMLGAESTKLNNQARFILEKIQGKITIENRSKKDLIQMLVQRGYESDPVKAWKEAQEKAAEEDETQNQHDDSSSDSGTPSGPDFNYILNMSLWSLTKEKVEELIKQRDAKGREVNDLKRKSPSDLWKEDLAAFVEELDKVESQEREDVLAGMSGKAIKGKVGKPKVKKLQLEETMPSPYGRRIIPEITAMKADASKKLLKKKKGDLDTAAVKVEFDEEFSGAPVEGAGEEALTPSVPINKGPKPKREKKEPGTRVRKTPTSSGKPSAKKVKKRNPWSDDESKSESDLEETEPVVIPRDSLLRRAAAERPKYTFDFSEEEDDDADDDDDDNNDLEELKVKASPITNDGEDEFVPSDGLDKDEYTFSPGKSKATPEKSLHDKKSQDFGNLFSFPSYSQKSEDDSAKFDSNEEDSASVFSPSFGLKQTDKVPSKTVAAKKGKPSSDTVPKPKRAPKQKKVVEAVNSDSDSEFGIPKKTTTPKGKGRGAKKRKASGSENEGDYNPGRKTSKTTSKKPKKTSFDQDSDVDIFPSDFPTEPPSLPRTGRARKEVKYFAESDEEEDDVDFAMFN

Substance | tested on | test | system | conditions | measurement | value
B1 (susA 23-617) | itself | SEC | – | – | subunits per oligomer | 2
COC(=O)Nc1c(N)nc(-c2nn(Cc3ccccc3F)c3ncc(F)cc23)nc1N | – | – | human, plasma | oral, 2.5 mg, geometric mean, together with: mefenamic acid | Cmax | 73.6 ng/mL
Fc1ccccc1Cc1nc(-c2nc(C(F)(F)F)n[nH]2)cn2ccnc12 | – | – | healthy human subjects, both sexes | oral, 10 mg, fasted | subjects with eye TEAEs | 0%
enzyme (Bacteroides thetaiotaomicron, UniProt Q89YZ9) | O=[N+]([O-])c1ccc(O[C@H]2O[C@H](CO)[C@@H](O)[C@H](O)[C@H]2O)cc1 | steady-state kinetics | – | pH 6.6 | Km | 88 µM
COc1cc([C@@H]2c3cc4c(cc3[C@@H](O[C@@H]3O[C@@H]5CO[C@@H](C)O[C@H]5[C@H](O)[C@H]3O)[C@H]3COC(=O)[C@H]23)OCO4)cc(OC)c1O | TOP2B (Homo sapiens, UniProt Q02880) | decatenation | – | 100 µM, replicate 2 | decatenated DNA | 83% and 100%
